# Measurements pooled from the literature.
# Each line is one published result; not all experiments were run side by side.
SMILES,assay,system,conditions,Cmax [ng/mL]
N.N.O=C([O-])C1(C(=O)[O-])CCC1.[Pt+2],"ICP-MS platinum, item: platinum","human patients, plasma ultrafiltrate","dose not given, carboplatin target AUC 3, cycle 1 day 1",30000
Cn1ncc(-c2nc(N[C@H]3CC[C@H](N)CC3)ncc2Cl)c1CC1CC1,HPLC-MS/MS,human patients,"oral, 3 mg, day 5",20.5
N.N.O=C([O-])C1(C(=O)[O-])CCC1.[Pt+2],item: non-protein-bound platinum,"human, plasma ultrafiltrate","dose not given, median",15100
O[C@H]1CCCN[C@@H]1CCCn1cnc2c(Cl)c(Cl)ccc21,,"human, UGT2B7 NN phenotype, plasma","oral, 150 mg twice daily, steady state",293
C[C@H](NC(=O)c1c(C(F)F)nn(C)c1Oc1cccc(C(F)(F)F)c1)c1ccc(C(=O)O)cc1,,"human, plasma","250 mg, cycle 1 day 8, mean",604
O=c1ccc2ncc(=O)n3c2n1C[C@H]3CN1CCC(NCc2cc3c(cn2)OCCC3)CC1,,"healthy human volunteers, plasma","oral, dose not given, arithmetic mean, added: rifampicin",3060
CC(=O)c1c(C)c2cnc(Nc3ccc(C4CCN(CCS(C)(=O)=O)CC4)cn3)nc2n(C2CCCC2)c1=O,,"human, plasma","oral, 25 mg once daily, day 1, single dose",75.5
OCc1ncc2n1-c1ccc(Cl)cc1C(c1ccccc1F)=NC2,,"human, plasma","oral, 7.5 mg of midazolam, day 26, arithmetic mean, no amenamevir",16.6

# Some of these lines once more:
SMILES,assay,system,conditions,Cmax [ng/mL]
C[C@H](NC(=O)c1c(C(F)F)nn(C)c1Oc1cccc(C(F)(F)F)c1)c1ccc(C(=O)O)cc1,,"human, plasma","250 mg, cycle 1 day 8, mean",604
